{"data": "Published values of several laboratories", "medium": "plasma", "route": "intravenous", "note": "Protocols differ between the studies behind these lines."}
{"Structure (SMILES)": "c1ccc(C2(CCNC3CCC4(SCCS4)c4ccccc43)CCOC3(CCCC3)C2)nc1 (stereo not shown)", "species": "Sprague-Dawley rat", "dose": "0.15 mg/kg", "clearance [mL/min/kg]": 18.2}
{"Structure (SMILES)": "CCCCCCCC[C@@H]1NC(=O)[C@@H](Cc2ccccc2)NC(=O)[C@H](CCN)NC(=O)[C@@H](NC(=O)[C@H](CCN)NC(=O)[C@@H](NC(=O)[C@H](CCN)NC(=O)c2ccc(-c3ccccc3)cc2)[C@@H](C)O)CCNC(=O)[C@H]([C@@H](C)O)NC(=O)[C@H](CCN)NC(=O)[C@H](CCN)NC1=O", "species": "rat", "setting": "single dose", "clearance [mL/min/kg]": "0.66 to 1.3"}
{"Structure (SMILES)": "CC[C@H](C)[C@@H]1NC(=O)[C@@H](NC(=O)[C@H](CC(=O)O)NC(=O)[C@H](CCCCN)NC(=O)[C@H](CCC(=O)O)NC(=O)[C@H](C)NC(=O)CN)CSSC[C@@H]2NC(=O)[C@@H]3CSSC[C@@H](C(=O)N[C@@H](CC(C)C)C(=O)O)NC(=O)[C@H](CCCCN)NC(=O)[C@H](CC(N)=O)NC(=O)[C@H](C)NC(=O)[C@H](Cc4ccc(O)cc4)NC(=O)[C@H](CO)NC(=O)[C@H](CO)NC(=O)[C@H](CSSC[C@H](NC(=O)[C@@H]4CCCN4C(=O)[C@H](C)NC(=O)CNC(=O)[C@@H]4CCCN4C(=O)[C@H](C)NC1=O)C(=O)N[C@@H](Cc1ccccc1)C(=O)NCC(=O)N[C@@H]([C@@H](C)O)C(=O)N[C@@H](CC(=O)O)C(=O)N[C@@H](CCCCN)C(=O)N1CCC[C@H]1C(=O)N3)NC(=O)[C@H](Cc1c[nH]c3ccccc13)NC(=O)[C@H](C)NC(=O)[C@H](CCCNC(=N)N)NC(=O)[C@@H]1CCCN1C(=O)[C@H](CC(N)=O)NC2=O", "species": "male Sprague-Dawley rat", "dose": "1 mg/kg", "clearance [mL/min/kg]": 7}
{"Structure (SMILES)": "CCCC[C@@H]1NC(=O)[C@H](Cc2ccc(O)cc2)NC(=O)[C@@H]2CCCN2C(=O)[C@H](CC(=O)O)NC(=O)[C@H](C)NC(=O)[C@H](Cc2ccccc2)NC(=O)[C@@H]2CSCCC(=O)N3CN(CN(C3)C(=O)CCSC[C@@H](C(=O)N[C@@H](C)C(N)=O)NC1=O)C(=O)CCSC[C@H](NC(C)=O)C(=O)N[C@@H](CC(C)(C)C)C(=O)N1CCC[C@H]1C(=O)N[C@@H](CCC(=O)O)C(=O)N[C@H](CCCCNC(=O)CCc1cn(CCOCCOCCOCCN(CCOCCOCCOCCC(=O)N[C@H]3CSCCC(=O)N4CN5CN(C4)C(=O)CCSC[C@H](NC(=O)[C@@H](CC(=O)O)NC(=O)[C@H](Cc4cccc6ccccc46)NC(=O)[C@@H]4CCCN4C3=O)C(=O)N[C@@H](CCSC)C(=O)N[C@@H](CCCCNC(=N)N)C(=O)N[C@@H](CC(=O)O)C(=O)N[C@@H](Cc3c[nH]c4ccccc34)C(=O)N[C@@H](CO)C(=O)N[C@@H]([C@@H](C)O)C(=O)N3CCC[C@H]3C(=O)N3C[C@H](O)C[C@H]3C(=O)N[C@@H](Cc3c[nH]c4ccccc34)C(=O)N[C@H](C(N)=O)CSCCC5=O)CCOCCOCCOCCn3cc(CCC(=O)NCCCC[C@H]4NC(=O)[C@H](CCC(=O)O)NC(=O)[C@@H]5CCCN5C(=O)[C@H](CC(C)(C)C)NC(=O)[C@@H](NC(C)=O)CSCCC(=O)N5CN6CN(C5)C(=O)CCSC[C@H](NC(=O)[C@H](Cc5ccc(O)cc5)NC(=O)[C@@H]5CCCN5C4=O)C(=O)N[C@@H](Cc4ccccc4)C(=O)N[C@@H](C)C(=O)N[C@@H](CC(=O)O)C(=O)N4CCC[C@H]4C(=O)N[C@@H](Cc4ccc(O)cc4)C(=O)N[C@@H](CCCC)C(=O)N[C@H](C(=O)N[C@@H](C)C(N)=O)CSCCC6=O)nn3)nn1)C(=O)N1CCC[C@H]1C(=O)N[C@@H](Cc1ccc(O)cc1)C(=O)N2", "species": "rat", "dose": "2 mg/kg", "clearance [mL/min/kg]": 8.5}
{"Structure (SMILES)": "C[C@@](O)(C(F)F)[C@H](NC(=O)c1ccc(C#CC#CC2CC2)cc1)C(=O)NO", "species": "rat", "dose": "40 mg/kg", "clearance [mL/min/kg]": 29}
{"Structure (SMILES)": "Cc1cc(Nc2nc(C[C@@]3(C(=O)O)CCN(Cc4cccc(Cl)c4F)[C@H](C)C3)cc(C)c2F)n[nH]1", "species": "Sprague-Dawley rat", "dose": "0.5 mg/kg", "setting": "single dose", "clearance [mL/min/kg]": 0.729}
{"Structure (SMILES)": "C[C@]12CC[C@H](OC(=O)NC3CCNCC3)C[C@H]1CC[C@@H]1[C@@H]2CC[C@]2(C)[C@@H](c3ccc(=O)oc3)CC[C@]12O", "species": "male Sprague-Dawley rat", "dose": "5 mg/kg", "setting": "single dose", "clearance [mL/min/kg]": 3.33}
{"Structure (SMILES)": "CCCC[C@@H]1NC(=O)[C@H](Cc2ccc(O)cc2)NC(=O)[C@@H]2CCCN2C(=O)[C@H](CC(=O)O)NC(=O)[C@H](C)NC(=O)[C@H](Cc2ccccc2)NC(=O)[C@@H]2CSCCC(=O)N3CN(CN(C3)C(=O)CCSC[C@@H](C(=O)N[C@@H](C)C(N)=O)NC1=O)C(=O)CCSC[C@H](NC(C)=O)C(=O)N[C@@H](CC(C)(C)C)C(=O)N1CCC[C@H]1C(=O)N[C@@H](CCC(=O)O)C(=O)N[C@H](CCCCNC(=O)CCc1cn(CCOCCOCCOCCN(CCOCCOCCOCCC(=O)N[C@H]3CSCCC(=O)N4CN5CN(C4)C(=O)CCSC[C@H](NC(=O)[C@@H](CCC(=O)O)NC(=O)[C@H](Cc4cccc6ccccc46)NC(=O)[C@@H]4CCCN4C3=O)C(=O)N[C@@H](CCSC)C(=O)N[C@@H](CCCCNC(=N)N)C(=O)N[C@@H](CCC(=O)O)C(=O)N[C@@H](Cc3c[nH]c4ccccc34)C(=O)N[C@@H](CO)C(=O)N[C@@H]([C@@H](C)O)C(=O)N3CCC[C@H]3C(=O)N3C[C@H](O)C[C@H]3C(=O)N[C@@H](Cc3c[nH]c4ccccc34)C(=O)N[C@H](C(N)=O)CSCCC5=O)CCOCCOCCOCCn3cc(CCC(=O)NCCCC[C@H]4NC(=O)[C@H](CCC(=O)O)NC(=O)[C@@H]5CCCN5C(=O)[C@H](CC(C)(C)C)NC(=O)[C@@H](NC(C)=O)CSCCC(=O)N5CN6CN(C5)C(=O)CCSC[C@H](NC(=O)[C@H](Cc5ccc(O)cc5)NC(=O)[C@@H]5CCCN5C4=O)C(=O)N[C@@H](Cc4ccccc4)C(=O)N[C@@H](C)C(=O)N[C@@H](CC(=O)O)C(=O)N4CCC[C@H]4C(=O)N[C@@H](Cc4ccc(O)cc4)C(=O)N[C@@H](CCCC)C(=O)N[C@H](C(=O)N[C@@H](C)C(N)=O)CSCCC6=O)nn3)nn1)C(=O)N1CCC[C@H]1C(=O)N[C@@H](Cc1ccc(O)cc1)C(=O)N2", "species": "rat", "dose": "2 mg/kg", "clearance [mL/min/kg]": 39}
{"Structure (SMILES)": "C/C=C/C=C/C/C=C/CCCCCCCc1cccc(O)c1O", "species": "male Wistar rat", "dose": "20 mg/kg", "clearance [mL/min/kg]": 12.8}
{"Structure (SMILES)": "C[C@@H]1CC[C@H]2[C@@H](C)CO[C@@H]3O[C@@]4(C)CC[C@@H]1[C@]32OO4", "species": "male Sprague-Dawley rat", "dose": "5 mg/kg", "clearance [mL/min/kg]": 138}
{"note": "For quick reference, copied from above:"}
{"Structure (SMILES)": "CCCC[C@@H]1NC(=O)[C@H](Cc2ccc(O)cc2)NC(=O)[C@@H]2CCCN2C(=O)[C@H](CC(=O)O)NC(=O)[C@H](C)NC(=O)[C@H](Cc2ccccc2)NC(=O)[C@@H]2CSCCC(=O)N3CN(CN(C3)C(=O)CCSC[C@@H](C(=O)N[C@@H](C)C(N)=O)NC1=O)C(=O)CCSC[C@H](NC(C)=O)C(=O)N[C@@H](CC(C)(C)C)C(=O)N1CCC[C@H]1C(=O)N[C@@H](CCC(=O)O)C(=O)N[C@H](CCCCNC(=O)CCc1cn(CCOCCOCCOCCN(CCOCCOCCOCCC(=O)N[C@H]3CSCCC(=O)N4CN5CN(C4)C(=O)CCSC[C@H](NC(=O)[C@@H](CC(=O)O)NC(=O)[C@H](Cc4cccc6ccccc46)NC(=O)[C@@H]4CCCN4C3=O)C(=O)N[C@@H](CCSC)C(=O)N[C@@H](CCCCNC(=N)N)C(=O)N[C@@H](CC(=O)O)C(=O)N[C@@H](Cc3c[nH]c4ccccc34)C(=O)N[C@@H](CO)C(=O)N[C@@H]([C@@H](C)O)C(=O)N3CCC[C@H]3C(=O)N3C[C@H](O)C[C@H]3C(=O)N[C@@H](Cc3c[nH]c4ccccc34)C(=O)N[C@H](C(N)=O)CSCCC5=O)CCOCCOCCOCCn3cc(CCC(=O)NCCCC[C@H]4NC(=O)[C@H](CCC(=O)O)NC(=O)[C@@H]5CCCN5C(=O)[C@H](CC(C)(C)C)NC(=O)[C@@H](NC(C)=O)CSCCC(=O)N5CN6CN(C5)C(=O)CCSC[C@H](NC(=O)[C@H](Cc5ccc(O)cc5)NC(=O)[C@@H]5CCCN5C4=O)C(=O)N[C@@H](Cc4ccccc4)C(=O)N[C@@H](C)C(=O)N[C@@H](CC(=O)O)C(=O)N4CCC[C@H]4C(=O)N[C@@H](Cc4ccc(O)cc4)C(=O)N[C@@H](CCCC)C(=O)N[C@H](C(=O)N[C@@H](C)C(N)=O)CSCCC6=O)nn3)nn1)C(=O)N1CCC[C@H]1C(=O)N[C@@H](Cc1ccc(O)cc1)C(=O)N2", "species": "rat", "dose": "2 mg/kg", "clearance [mL/min/kg]": 8.5}
